Results pooled from the literature.
Each numbered part is a random draw from the data of one study; scales do not carry over between parts. Substitutions count along the parent as printed.

Block 1 — method: RNAcompete; form: RNA; medium: in vitro; tested at: 20 nM; setting: 7-mer, probes averaged, single round; relative to: mean of 7-mers; reading: higher = stronger binding
Target: PABPC1L2, full length, GST fusion (mouse, UniProt A0ABA7IW68)
Target sequence (chain): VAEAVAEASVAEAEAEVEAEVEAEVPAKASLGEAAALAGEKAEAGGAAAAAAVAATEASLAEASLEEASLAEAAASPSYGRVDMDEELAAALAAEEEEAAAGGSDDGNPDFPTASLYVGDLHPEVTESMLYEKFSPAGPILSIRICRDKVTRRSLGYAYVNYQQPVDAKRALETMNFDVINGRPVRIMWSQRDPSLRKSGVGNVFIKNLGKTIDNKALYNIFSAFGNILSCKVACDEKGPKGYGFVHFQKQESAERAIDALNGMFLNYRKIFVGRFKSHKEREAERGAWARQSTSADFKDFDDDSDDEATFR
| Sequence | 7-mer Z-score |
| --- | --- |
| UAUCCUA | -0.228 |
| GAACGCG | -0.155 |
| CACAGCA | 0.00979 |
| GAUACAC | -0.121 |
| CUGGACG | -0.179 |
| AGAACGC | -0.079 |
| AGGCUUA | 0.00617 |
| UUAACCG | -0.248 |
| UGUUUGU | -0.496 |
| GACUCGU | -0.508 |
| UCUCUGC | -0.249 |
| GAGCACU | -0.206 |
| CUGGCUU | -0.251 |
| GUGACAU | 0.0297 |
| CCAGCCC | -0.407 |
| AUGCGGC | -0.0246 |

Block 2 — target: CCNE2, cyclin fold, Cln2 fusion (human); method: yeast growth competition, sequencing; medium: yeast; setting: strong parent motif; relative to: not given; reading: higher = stronger binding
Starting sequence: E2F1 docking peptide (human); PPVKRRLDFETDH
| Change | normalised enrichment score |
| --- | --- |
| R5T | 0.211 |
| R6A | 2.39 |
| D8L | 5.95 |
| R5Q | 0.214 |
| P2F | 4.17 |
| T11L | 5.77 |
| F9S | 0.349 |
| D8W | 5.8 |
| V3M | 1.53 |
| E10Y | 5.67 |
| D12H | 6.4 |
| E10L | 5.37 |
| D8F | 7.08 |
| P2R | 5.8 |
| D8C | 6.09 |
| F9T | 0.808 |
| T11R | 5.76 |
| R5G | 0.17 |
| F9E | 0.859 |
| R6Q | 4.53 |
| R5L | 0.175 |
| R6G | 0.391 |
| K4T | 2.56 |
| E10C | 6.11 |
| T11C | 5.64 |

Block 3 — method: RNA Bind-n-Seq; form: RNA; medium: in vitro; tested at: 200 nM; setting: whole 134-nt RNA, ends assumed; together with: 150 mM LiCl; relative to: input library; reading: higher = stronger binding; each molecule: 7-deaza-guanosine replaces G
Target: Ras GTPase-activating protein-binding protein 1, full length (G3BP1, Homo sapiens, UniProt Q13283)
UniProt Q13283, sequence (whole entry, looked up): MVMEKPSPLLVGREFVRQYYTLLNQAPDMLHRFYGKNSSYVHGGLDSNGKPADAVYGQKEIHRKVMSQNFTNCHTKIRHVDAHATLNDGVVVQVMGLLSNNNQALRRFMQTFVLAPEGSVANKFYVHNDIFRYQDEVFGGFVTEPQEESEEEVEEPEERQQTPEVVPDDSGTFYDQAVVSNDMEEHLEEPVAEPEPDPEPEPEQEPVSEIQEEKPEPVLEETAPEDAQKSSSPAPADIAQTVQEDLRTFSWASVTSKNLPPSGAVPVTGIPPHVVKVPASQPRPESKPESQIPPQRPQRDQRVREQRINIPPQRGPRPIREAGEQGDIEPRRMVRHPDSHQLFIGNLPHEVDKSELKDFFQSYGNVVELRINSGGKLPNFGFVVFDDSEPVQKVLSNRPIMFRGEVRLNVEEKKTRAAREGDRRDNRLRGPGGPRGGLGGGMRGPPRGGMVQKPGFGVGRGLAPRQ
| Sequence | log2 enrichment |
| --- | --- |
| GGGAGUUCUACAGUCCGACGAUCUGGGAGGUGGAUUUUGUUUAUUUUUUUAGCUCAUUUCCAGGGGUGGGAAUUUUUUUUUAAUAUGUGUCAUGAUUAAAGUUGUUUUUGAAAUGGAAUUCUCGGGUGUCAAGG | -0.169 |
| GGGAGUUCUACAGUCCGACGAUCCCUCAAGUCCUGUGCUACACAUCGUAUGUACCGAAUCGGGAGGGAGGGAGGGAAAGUAUUAUGUUACGCCGUUCGGAUCUGCACUUCCAGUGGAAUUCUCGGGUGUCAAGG | 0.0515 |
| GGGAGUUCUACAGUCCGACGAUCUGGGAUGUGGAUUUUGUUUAUUUUUUUAGCUCAUUUCCAGGGGUGGGAAUUUUUUUUUAAUAUGUGUCAUGAAUAAAGUUGUUUUUGAAAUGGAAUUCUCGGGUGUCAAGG | 0.492 |
| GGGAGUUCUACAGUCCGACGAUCCUGUGCUACACAUCGUAUGUACCGAAUCGGGGAAAAAAAGGGAAAAAAAGGGGAAAAAAAGGAAAGUAUUAUGUUACGCCGUUCGGAUCUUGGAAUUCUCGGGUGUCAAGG | 0.216 |
| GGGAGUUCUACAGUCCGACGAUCCCUGUGCUACACAUCGUAUGUACCGAAUCGGGAAAAAAGGGGAAAAAAGGGGAAAAAAGGAAAGUAUUAUGUUACGCCGUUCGGAUCUGCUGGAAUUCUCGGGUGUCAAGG | 0.414 |
| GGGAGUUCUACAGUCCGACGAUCAAGUCCUGUGCUACACAUCGUAUGUACCGAAUCGGCCCCCGGCCCCCGGGCCCCCGGAAAGUAUUAUGUUACGCCGUUCGGAUCUGCACUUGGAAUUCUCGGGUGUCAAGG | -0.53 |
| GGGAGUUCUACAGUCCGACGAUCUCCUGUGCUACACAUCGUAUGUACCGAAUCGGCCCCCCCGGCCCCCCCGGGCCCCCCCGGAAAGUAUUAUGUUACGCCGUUCGGAUCUGCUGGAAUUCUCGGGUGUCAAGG | 0.603 |
| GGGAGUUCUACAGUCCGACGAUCUUCUUACAUGUGUAAUCUUCUUCUCCUAGGGCGGCAGAACUCAUGACAAGAACAAGCUCUGUGGUGACACUGGAAGUAGCAAAGCAGGGUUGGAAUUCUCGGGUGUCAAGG | -0.19 |
| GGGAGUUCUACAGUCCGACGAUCCACAGACAACACGCACCCACACAGACACAGAGGGACGGGGUUGGGAUGGGGACAGGGUGCACAGCAGGGCGGGGUAGGACCCCAGCCCCUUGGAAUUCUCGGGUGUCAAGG | -1.39 |
| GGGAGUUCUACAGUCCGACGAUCUGGCCCUGGUGGCAUGCGGGGAGGCAGAGGUGGCCUCAUGGAUCGUGGUGGUCCCGGUGGAAUGUUCAGAGGUGGCCGUGGUGGAGACAGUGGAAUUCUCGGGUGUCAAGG | 0.242 |
| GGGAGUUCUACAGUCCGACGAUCAGUCCUGUGCUACACAUCGUAUGUACCGAAUCGGGGAAAGGGGAAAAAGGGGAGGGGAAAGUAUUAUGUUACGCCGUUCGGAUCUGCACUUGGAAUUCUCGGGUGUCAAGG | 0.119 |

Block 4 — method: DHFR PCA, deep sequencing; medium: yeast; together with: (+)-ABA 0.032 µM; relative to: wild-type fitted maximum; reading: higher = stronger binding
Target: ABI1, truncated, D143A, DHFR fusion (Arabidopsis thaliana)
Setting: methotrexate growth selection, single substitutions
Starting sequence: PYL1, truncated, DHFR fusion (Arabidopsis thaliana); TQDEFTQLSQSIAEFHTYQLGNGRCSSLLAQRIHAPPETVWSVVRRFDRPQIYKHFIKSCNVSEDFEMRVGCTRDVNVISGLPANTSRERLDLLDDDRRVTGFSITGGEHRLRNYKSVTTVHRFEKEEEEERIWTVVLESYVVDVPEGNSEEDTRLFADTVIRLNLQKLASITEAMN
| Change | relative binding score |
| --- | --- |
| S87N | -2.89% |
| L29K | -0.139% |
| Y115N | 4.21% |
| F15V | -1.59% |
| N77R | 49.7% |
| E109I | 0.706% |
| A35N | -3.81% |
| E152M | 5.77% |
| R99H | 40.9% |
| N61I | 41.8% |
| A170W | -9.45% |
| G107Q | 14.4% |
| Y18G | -3.74% |
| L82S | 6.87% |
| E139L | 0.939% |

Block 5 — target: UBE2R2 UBC core domain (UniProt Q712K3); method: yeast two-hybrid; medium: yeast; setting: mostly zero background; relative to: not given; reading: higher = stronger interaction
B1: TRIM5 RING domain (UniProt Q9C035); chain ILVNVKEEVTCPICLELLTQPLSLDCGHSFCQACLTANHKKSMLDKGESSCPVCRISYQPENIRP
B2: VPS41 RING domain (UniProt P49754); chain KGVLVDEENICESCLSPILPSDAAKPFSVVVFHCRHMFHKECLPMPSMNSAAQFCNICSAKNRGPGSAI
B3: RC3H1 RING domain (UniProt Q5TC82); chain QAPQWTDFLSCPICTQTFDETIRKPISLGCGHTVCKMCLNKLHRKACPFDQTTINTDIELL
B4: DTX4 RING domain (UniProt Q9Y2E6); chain QKVRHPPDEDCTICMERLTAPSGYKGPQPTVKPDLVGKLSRCGHVYHIYCLVAMYNNGNKDGSLQCPTCKTIYGVKTGTQ
B5: TRAF5 RING domain (UniProt O00463); chain FVERLEERYKCAFCHSVLHNPHQTGCGHRFCQHCILSLRELNTVPICPVDKEVIKSQEVFK
B6: TRIM40 RING domain (UniProt Q6P9F5); chain LQKDNQEEGVCPICQESLKEAVSTNCGHLFCRVCLTQHVEKASASGVFCCPLCRKPCSEEVLG
B7: TRIML1 RING domain (UniProt Q8N9V2); chain LMENLREELTCFICLDYFSSPVTTECGHSFCLVCLLRSWEEHNTPLSCPECWRTLEGPHFQS
B8: RNF38 RING domain (UniProt Q9H0F5); chain PNNHQSEQTLCVVCMCDFESRQLLRVLPCNHEFHAKCVDKWLKANRTCPICRADASEVHRDS
B9: RNF208 RING domain (UniProt Q9H0X6); chain SSAAAGEPLECPTCGHSYNVTQRRPRVLSCLHSVCEQCLQILYESCPKYKFISCPTCRRETVLFTDYG
Construct (chain): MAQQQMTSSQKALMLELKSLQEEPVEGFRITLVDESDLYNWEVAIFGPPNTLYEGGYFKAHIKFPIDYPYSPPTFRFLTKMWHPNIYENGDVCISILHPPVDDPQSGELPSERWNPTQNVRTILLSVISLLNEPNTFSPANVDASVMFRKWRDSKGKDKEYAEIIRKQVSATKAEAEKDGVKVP
| Sequence | lacZ reporter activity |
| --- | --- |
| ASLPTSEEDLCPICYAHPISAVFQPCGHKSCKACINQHLMNNKDCFFCKTTIVSVEDWE (RNF123 RING domain (UniProt Q5XPI4)) | 0 |
| B1 (TRIM5 RING domain) | 0 |
| VEPSEENSKDCVVCQNGTVNWVLLPCRHTCLCDGCVKYFQQCPMCRQFVQESFALC (CGRRF1 RING domain (UniProt Q99675)) | 0 |
| B2 (VPS41 RING domain) | 0 |
| MPIRALCTICSDFFDHSRDVAAIHCGHTFHLQCLIQWFETAPSRTCPQCRIQVGKRTIIN (TRAIP RING domain (UniProt Q9BWF2)) | 0 |
| B3 (RC3H1 RING domain) | 0 |
| B4 (DTX4 RING domain) | 0 |
| FQGDVDEDLICPICSGVLEEPVQAPHCEHAFCNACITQWFSQQQTCPVDRSVVTVAHLRP (RNF41 RING domain (UniProt Q9H4P4)) | 0 |
| DHGAVGQEMCCPICCSEYVKGEVATELPCHHYFHKPCVSIWLQKSGTCPVCRCMFPPPL (PJA1 RING domain (UniProt Q8NG27)) | 0 |
| B5 (TRAF5 RING domain) | 0 |
| B6 (TRIM40 RING domain) | 0 |
| B7 (TRIML1 RING domain) | 0 |
| QVDKAVFHMQSVKCLKCQEQKRAVLPCQHAALCELCAEGSECPICQPGRAHTLQS (UNK RING domain (UniProt Q9C0B0)) | 0 |
| B8 (RNF38 RING domain) | 0 |
| B9 (RNF208 RING domain) | 0 |
| GAAPGPEAAECLVCSELALLVLFSPCQHRTVCEECARRMKKCIRCQVVVSKKLRPD (MIB2 RING domain (UniProt Q96AX9)) | 0 |

Excerpt of the above (block 1):
| Sequence | 7-mer Z-score |
| --- | --- |
| GAUACAC | -0.121 |
| CUGGACG | -0.179 |
| AGAACGC | -0.079 |
| AGGCUUA | 0.00617 |
| UUAACCG | -0.248 |
| UGUUUGU | -0.496 |
| GACUCGU | -0.508 |
| UCUCUGC | -0.249 |
| GAGCACU | -0.206 |
| CUGGCUU | -0.251 |
| GUGACAU | 0.0297 |
